Results of several laboratories.
Lines come from different studies, so protocols differ. Several values in a cell are separate wells, animals, samples, runs or records.

| Compound | cell line | assay | conditions | how to read | endpoint | value |
| --- | --- | --- | --- | --- | --- | --- |
| CCC(=C(c1ccc(Cl)cc1)c1ccc(OCCCN(C)C)cc1)c1ccc(OC)cc1 | HOP-92 | cell growth or viability, SRB | – | – | GI50 | 0.83 µM |
| Cc1ccc(CN2C(=O)/C(=N\c3ccc(Cl)cc3Br)c3ccccc32)cc1 | A-375 | cell growth or viability | 1.8 µM | – | inhibition | 48.1% |
| C=C1[C@H](O)CC(=C/C=C2\CCC[C@]3(C)[C@@H]([C@@H](C)CCCC)CC[C@@H]23)C[C@H]1O | rat osteosarcoma cells | reporter gene, luciferase, refers to: CYP24A1 (24-hydroxylase) promoter | – | reference: compound over 1α,25-dihydroxyvitamin D3 | EC50 ratio | 15 |
| COc1cc(CNC(=O)C[C@H](C)CCC=C(C)C)ccc1OCc1cn(-c2ccccc2F)nn1 | SK-MEL-5 melanoma cells | SRB | 10 µM, 48 h | – | growth percent | 70.8% |
| CC[C@H](C)C(=O)O[C@H]1C[C@H](O)C=C2C=C[C@H](C)[C@H](CC[C@@H](O)C[C@@H](O)CC(=O)O)[C@H]21 | hiPSC cardiac tissues 3D | active force | 15 min per concentration, paced at 1 Hz serum-free | – | minimum effective concentration | > 100 µM |
| COc1cc(CNC(=O)C[C@H](C)CCC=C(C)C)ccc1OCc1cn(-c2cccc(Cl)c2)nn1 | SK-OV-3 ovarian cancer cells | SRB | 10 µM, 48 h | – | growth percent | 75.1% |
| CC(=O)OC[C@H]1O[C@@H](Sc2sc(C(=O)c3ccc(C)cc3)c(N)c2-c2nc3ccccc3s2)[C@H](OC(C)=O)[C@@H](OC(C)=O)[C@H]1OC(C)=O | 786-0 renal cancer | SRB | 10 µM, 48 h | – | growth percent | 89.1% |
| CC(C)(C)c1nc(-c2cccc(NS(=O)(=O)c3c(F)cccc3F)c2F)c(-c2ccnc(N)n2)s1.Cc1[nH]c2ccccc2c1CCNCc1ccc(/C=C/C(=O)NO)cc1 | C13 | flow cytometry | concentration not given, 48 h | – | sub-G1 cells | 87.9% and > 80% |
| C=C(C)[C@@H]1CC[C@]2(C(=O)OCO/N=[N+](\[O-])N3CCCC3)CC[C@]3(C)[C@H](CC[C@@H]4[C@@]5(C)CC[C@H](OC(C)=O)C(C)(C)[C@@H]5CC[C@]43C)[C@@H]12 | B16-F10 | PI flow cytometry | 0.50 µM | – | cells in S phase | 43.8% |
| CC(=O)OC[C@H]1O[C@@H](Sc2sc(C(=O)c3ccc(Br)cc3)c(N)c2-c2nc3ccccc3s2)[C@H](OC(C)=O)[C@@H](OC(C)=O)[C@H]1OC(C)=O | NCI-H23 | SRB | 10 µM, 48 h | reference: untreated | growth | 88.4% |
| N=C(N/N=C/c1ccc2ccccc2c1)N/N=C/c1ccc2ccccc2c1 | PANC-1 | crystal violet | 72 h | reference: IC50 IMR-90 over IC50 PANC-1 | selectivity ratio | 1.1 |
| COc1cc(CNC(=O)C[C@H](C)CCC=C(C)C)ccc1OCc1cn(-c2cccc(C(F)(F)F)c2)nn1 | KM12 | SRB | 10 µM, 48 h | – | growth percent | 85% |
| CC(C)C[C@H](NC(=O)[C@H](CC(C)C)NC(=O)[C@@H](N)CSSC[C@H](N)C(=O)N[C@@H](CC(C)C)C(=O)N[C@@H](CC(C)C)C(=O)N[C@@H](CCCNC(=N)N)C(=O)N[C@@H](CCCCN)C(=O)N[C@@H](CCCCN)C(=O)N[C@@H](CCCNC(=N)N)C(=O)N[C@@H](CCCNC(=N)N)C(=O)N[C@@H](CCC(N)=O)C(=O)N[C@@H](CCCNC(=N)N)C(=O)N[C@@H](CCCNC(=N)N)C(=O)N[C@@H](CCCNC(=N)N)C(=O)NCC(N)=O)C(=O)N[C@@H](CCCNC(=N)N)C(=O)N[C@@H](CCCCN)C(=O)N[C@@H](CCCCN)C(=O)N[C@@H](CCCNC(=N)N)C(=O)N[C@@H](CCCNC(=N)N)C(=O)N[C@@H](CCC(N)=O)C(=O)N[C@@H](CCCNC(=N)N)C(=O)N[C@@H](CCCNC(=N)N)C(=O)N[C@@H](CCCNC(=N)N)C(=O)NCC(N)=O | sample A primary mouse astrocytes | flow cytometry | 8 µM, 1 h, analysed 24 h after, with: TAT-Cre 2 µM | – | tdTomato-positive cells | ≥ 50% |
| CCC(C(=O)O)C1CCC(C)C(C(C)C(O)C(C)C(=O)C(CC)C2OC3(C=CC(NCc4cn(CCCCSC(C)=O)nn4)C4(CCC(C)(C5CCC(O)(CC)C(C)O5)O4)O3)C(C)CC2C)O1 (stereo not shown) | HMLER | cell proliferation | – | reference: IC50 CD24high/CD44low over IC50 CD24low/CD44high | selectivity ratio | 5.3 |
| O=C(NCCCNc1n[n+]([O-])c2ccccc2[n+]1[O-])C(F)(F)F | HUVEC and fibroblast co-culture | – | 2 µM, 264 h | – | tube formation reduction | 10 to 22% |
| COc1cc(CNC(=O)C[C@H](C)CCC=C(C)C)ccc1OCc1cn(-c2ccccc2)nn1 | NCI-H23 | SRB | 10 µM, 48 h | – | growth percent | 91.9% |
| COc1cc(CN2CCN(c3ccc(OC(F)(F)F)cc3)CC2)c2cc3[n+](cc2c1O)CCc1cc2c(cc1-3)OCO2 | Ca-Ski and MDCK | SRB | 48 h | reference: CC50 MDCK over IC50 Ca-Ski | therapeutic index | 32 |
| COc1cc(CNC(=O)C[C@H](C)CCC=C(C)C)ccc1O | TK-10 | SRB | 10 µM, 48 h | – | growth percent | 120% |
| O=Cc1c(O)ccc2ccccc12 | HUVEC | RNA sequencing, refers to: LYVE1 | 75 µM, 24 h | reference: DMSO | log2 fold change | -3.89 |

Excerpt of the above:
| Compound | cell line | assay | conditions | how to read | endpoint | value |
| --- | --- | --- | --- | --- | --- | --- |
| COc1cc(CNC(=O)C[C@H](C)CCC=C(C)C)ccc1OCc1cn(-c2ccccc2)nn1 | NCI-H23 | SRB | 10 µM, 48 h | – | growth percent | 91.9% |
| CCC(=C(c1ccc(Cl)cc1)c1ccc(OCCCN(C)C)cc1)c1ccc(OC)cc1 | HOP-92 | cell growth or viability, SRB | – | – | GI50 | 0.83 µM |
| O=C(NCCCNc1n[n+]([O-])c2ccccc2[n+]1[O-])C(F)(F)F | HUVEC and fibroblast co-culture | – | 2 µM, 264 h | – | tube formation reduction | 10 to 22% |
